Assay results of several laboratories.
Each numbered part is a random draw from the data of one study; scales do not carry over between parts.

Sample 1
Host: human
Medium: microsomes or S9
Concentration: 2 µM
Time: 0.5 h
| Structure (SMILES) | remaining compound [%] |
| --- | --- |
| Cc1ccc(-c2nc3n(CC(=O)Nc4cccc(F)c4)c4c(c(=O)n3n2)CCC4)cc1 | 83.2 |
| O=C(COc1ccc(Cl)cc1Cl)Nc1nc2n(n1)C(c1ccccc1)CC(=O)N2 (stereo not drawn) | 37.6 |
| Cc1cc(C(=O)Nc2nnc(Cc3cccs3)o2)n(C)n1 | 65.4 |
| O=C1CC(c2ccccc2)=NN1c1nc(-c2ccc(Cl)cc2)cs1 | 76.6 |
| Cc1[nH]c(C(=O)NCc2ccc3c(c2)OCO3)c(C)c1S(=O)(=O)N1CCCCCC1 | 83 |
| CCN1CCCC1CNC(=O)C1CCCN(c2ncnc3[nH]cnc23)C1 (stereo not drawn) | 76.3 |
| Cc1ccc(O)c(C(=O)c2cnc(/N=C(\N)N(C)C)nc2)c1 | 98.8 |
| Cn1cc(-c2n[nH]c(=O)c3ccccc23)c2ccccc21 | 31.1 |

Sample 2
Target: Protein-tyrosine kinase 6 (PTK6, Homo sapiens, UniProt Q13882)
Chain of UniProt Q13882 (whole entry, looked up): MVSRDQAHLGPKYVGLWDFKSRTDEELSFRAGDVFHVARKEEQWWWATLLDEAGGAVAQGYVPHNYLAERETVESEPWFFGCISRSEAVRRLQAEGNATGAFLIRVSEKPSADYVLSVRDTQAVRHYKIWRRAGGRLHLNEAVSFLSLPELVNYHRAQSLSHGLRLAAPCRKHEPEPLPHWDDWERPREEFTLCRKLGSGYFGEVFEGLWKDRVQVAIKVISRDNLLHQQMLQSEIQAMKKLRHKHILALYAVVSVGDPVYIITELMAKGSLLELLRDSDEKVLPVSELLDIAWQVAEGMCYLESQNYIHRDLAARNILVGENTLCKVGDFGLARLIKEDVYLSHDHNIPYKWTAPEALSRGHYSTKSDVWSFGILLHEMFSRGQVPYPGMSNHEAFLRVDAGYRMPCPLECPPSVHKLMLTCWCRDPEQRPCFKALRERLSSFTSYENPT
Read-out: enzyme activity
Action: inhibitor
Concentration: 0.5 µM
Baseline: control
| SMILES | remaining activity [%] |
| --- | --- |
| CN(C)CCCn1cc(C2=C(c3c[nH]c4ccccc34)C(=O)NC2=O)c2ccccc21 | 95.3 |
| CC(C)c1nn(-c2c(Cl)cccc2Cl)c2nc(Cc3ccc(OCCO)cc3)[nH]c(=O)c12 | 87.1 |
| O=C1NC(=O)/C(=C/c2ccc3nccnc3c2)S1 | 95.1 |
| COc1ccc(-c2cnc3c(-c4ccsc4)cnn3c2)cc1 | 77.5 |
| COc1ccc(Cl)cc1NC(=O)Nc1cc(C)nc2ccccc12 | 101 |
| CCN1/C(=C/C(C)=O)Sc2ccc(OC)cc21 | 85.3 |
| CC(=O)O/N=C1/C(c2c(O)[nH]c3cc(Br)ccc23)=Nc2ccccc21 | 91.2 |
| COc1cc2ncnc(Nc3ccc(OCc4ccccc4)cc3)c2cc1OC | 37.9 |
| CCC(=O)Nc1ccc2ncnc(Nc3cccc(Br)c3)c2c1 | 57.2 |
| COc1cc2ncc(-c3ccccc3)nc2cc1OC | 80.8 |

Sample 3
Structure (SMILES): CC(C)n1cnc(-c2ccc(F)cc2)c1-c1ncc(C(=O)Nc2ccc(N3CCN(C)CC3)cc2)[nH]1
Method: phase 2a clinical trial
Host: idiopathic pulmonary fibrosis patients
| refers to | route | dose | setting | baseline | patients with TEAEs [%] |
| --- | --- | --- | --- | --- | --- |
| oral herpes | oral | 30 mg once daily | grade 1 maximum intensity | patients | 1 |
| respiratory tract infection |  | dose not given | grade 2, all drug arms | patients | 2 |
| neoplasms (SOC) |  | 30 mg once daily | grade 3 maximum intensity |  | 0 |
| infections and infestations |  | 30 mg once daily | grade 1 maximum intensity | patients | 1 |
| respiratory tract infection |  | dose not given | grade 1, all drug arms | patients | 1 |
| neoplasms (SOC) |  | dose not given | grade 1, all drug arms |  | 0 |
| neoplasms (SOC) |  | 30 mg once daily | grade 2 maximum intensity |  | 0 |
| chest discomfort |  | 60 mg once daily | grade 2 maximum intensity | patients | 1 |
| neoplasms (SOC) |  | dose not given | grade 2, all drug arms | patients | 1 |
| infections and infestations |  | dose not given | grade 1, all drug arms | patients | 3 |
| neoplasms (SOC) |  | 60 mg once daily | grade 1 maximum intensity |  | 0 |

Sample 4
Target: Beta-3 adrenergic receptor (ADRB3, Homo sapiens, UniProt P13945)
Chain of UniProt P13945 (whole entry, looked up): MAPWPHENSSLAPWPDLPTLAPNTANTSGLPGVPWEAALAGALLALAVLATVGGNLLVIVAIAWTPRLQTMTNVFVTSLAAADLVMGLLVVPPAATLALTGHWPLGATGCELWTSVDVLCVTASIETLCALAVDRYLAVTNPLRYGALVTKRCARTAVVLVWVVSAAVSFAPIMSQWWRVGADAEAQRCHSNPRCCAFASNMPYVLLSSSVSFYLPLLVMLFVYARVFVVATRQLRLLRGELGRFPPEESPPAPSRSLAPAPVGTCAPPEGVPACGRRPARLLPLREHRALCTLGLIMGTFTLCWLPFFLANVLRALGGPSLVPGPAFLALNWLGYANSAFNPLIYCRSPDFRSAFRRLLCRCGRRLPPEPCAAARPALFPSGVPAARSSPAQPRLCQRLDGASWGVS
Read-out: binding
Method: radioligand binding
Concentration: 10 µM
| SMILES | inhibition [%] |
| --- | --- |
| O=C1CCc2cc(Nc3cc(OC4CCOCC4)c([N+](=O)[O-])cc3Cl)ccc2N1 | 7.73 |
| COc1cc(-c2cn(C3CCc4ccccc4N(CC(F)(F)F)C3=O)nn2)ccc1-n1ccc(C)n1 (stereo not drawn) | -11.6 |
| O=C(NC[C@@H]1[C@H]2CN(C(=O)OCc3cc(C(F)(F)F)cc(C(F)(F)F)c3)C[C@@H]12)c1ccc2[nH]nnc2c1 | 31.5 |
| Nc1c(C(=O)NCc2ccc(C(=O)NCCCC3CCCCC3)cc2)cnn1-c1ccccc1 | 21.8 |
| O=C(Nc1cccnn1)N1CCC(=Cc2cccc(Oc3ccc(C(F)(F)F)cn3)c2)CC1 | 0.69 |
| COc1nc2ccc([C@@](O)(c3ccccc3)C3CCN(C(C)=O)CC3)cc2c(Cl)c1Cc1ccc(-n2cccn2)cc1 | 39.4 |
| Cc1nc(N2CC[C@@H](O)C2)ncc1-c1cc(C(F)(F)F)cc2[nH]ncc12 | 20.7 |
| O=C(Nc1cccnn1)N1CC(CC=Cc2cncc(Oc3ccc(C(F)(F)F)cn3)n2)C1 | -10.1 |
| Cc1nc(C2CCN(C(=O)c3ccc(OC(F)(F)F)cc3N)CC2)c2ncc(N3CCN(C)CC3)cc2n1 | -12.6 |
| CC1=C(C#N)C(c2ccc3c(c2)c(NC(=O)c2ccccc2C)nn3C)C(C#N)=C(C)N1 | -3.33 |
| Cc1c(NC(=O)c2cc(C(N)=O)nc3cc(F)ccc23)c(C(F)(F)F)nn1Cc1ccc(C(C)(C)C)cc1 | -10.9 |
| O=C(Nc1cnc(Oc2ccc(F)cc2)nc1)N1CCc2ncccc2[C@@H]1c1ccc(F)cc1 | -13.7 |
| O=C(O)c1cc(-c2ccc(C3CCNCC3)cc2)c2ccc(-c3ccc(C(F)(F)F)cc3)cc2c1 | 65.2 |

Excerpt of the above (sample 2):
| SMILES | remaining activity [%] |
| --- | --- |
| CN(C)CCCn1cc(C2=C(c3c[nH]c4ccccc34)C(=O)NC2=O)c2ccccc21 | 95.3 |
| CC(C)c1nn(-c2c(Cl)cccc2Cl)c2nc(Cc3ccc(OCCO)cc3)[nH]c(=O)c12 | 87.1 |
| O=C1NC(=O)/C(=C/c2ccc3nccnc3c2)S1 | 95.1 |
| COc1ccc(-c2cnc3c(-c4ccsc4)cnn3c2)cc1 | 77.5 |
| COc1ccc(Cl)cc1NC(=O)Nc1cc(C)nc2ccccc12 | 101 |
